Measurements from different studies.
Each numbered part is a random draw from the data of one study; scales do not carry over between parts. Positions count from the first letter of the parent shown.

Block 1
Target: PABPC1L2, full length, GST fusion (mouse, UniProt A0ABA7IW68)
Method: RNAcompete
Form: RNA
Sample: in vitro
Tested at: 20 nM
Setting: 7-mer, probes averaged, single round
Reference: mean of 7-mers
Reading: higher = stronger binding
Residues (chain): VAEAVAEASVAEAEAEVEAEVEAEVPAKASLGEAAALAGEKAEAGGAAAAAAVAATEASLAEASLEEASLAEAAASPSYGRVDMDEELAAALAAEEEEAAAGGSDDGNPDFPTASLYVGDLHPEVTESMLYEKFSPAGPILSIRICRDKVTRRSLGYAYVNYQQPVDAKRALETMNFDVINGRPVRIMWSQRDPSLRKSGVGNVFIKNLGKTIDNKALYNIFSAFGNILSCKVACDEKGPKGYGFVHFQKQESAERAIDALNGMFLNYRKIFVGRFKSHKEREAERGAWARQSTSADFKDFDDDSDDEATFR
| Strand | 7-mer Z-score |
| --- | --- |
| CUGAAGA | -0.126 |
| UCAGACG | -0.133 |
| GCUGUCG | -0.32 |
| AUUUAUG | 0.256 |
| CGCAGGG | 0.095 |
| GAGCCAC | -0.0899 |
| GUUGGAG | -0.0627 |
| AGUGAAC | -0.15 |
| CAACAUC | 0.0805 |
| CCAUCAC | -0.238 |
| AUUUCCA | -0.219 |
| AACCCUA | -0.0337 |
| AUCUUAA | -0.0355 |
| GUAGAAC | -0.0989 |
| CUAGGAU | -0.0663 |
| UUAGAGG | 0.0932 |
| UCUGAGU | -0.28 |
| AAUCCAA | 0.274 |
| AUACAGU | -0.0101 |
| UAAGCCA | -0.229 |
| UAGUGGU | -0.329 |
| UCAUUAA | 0.066 |

Block 2
Target: RNA binding protein fox-1 homolog 2, RRM domain, GST-SBP tag (RBFOX2, Homo sapiens, UniProt O43251-10, residues 100-194)
Method: RNA Bind-n-Seq
Form: RNA
Sample: in vitro
Tested at: 365 nM
Setting: natural RNA segment, single round, ends assumed
Reference: no-protein control
Reading: higher = stronger binding
Constant ends, left off below: GGGAGUUCUACAGUCCGACGAUC … UGGAAUUCUCGGGUGCCAA
Residues (chain): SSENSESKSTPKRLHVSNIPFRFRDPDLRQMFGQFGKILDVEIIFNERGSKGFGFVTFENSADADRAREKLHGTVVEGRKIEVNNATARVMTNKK
| Strand | RBNS enrichment (R) |
| --- | --- |
| GCAAAGCCCAGGUUCUUGUUCCACACAGUGUAAUGUAGGUGUAUUUUGGACAGCACAUAUGGUCCAUUGUGUACAAGUCAGUAAUCUGGAUUUCAGUACAUGGAUUUAAA | 0.673 |
| AAUCCUCUUCACCUCUGUGUUUUCUUCUAGAAGAUGCAUUUUGGGUCUGAGAGGAGCAUUUUCCUGGAAGGCCAUCUUUUAAGGCCCCUGCUUGCUGUCAUAGUGCAGAG | 1.27 |
| UUUAAUGUUGCUUAGCAUAAAAAAUACUUUCUUACAGUAAUCUUCUUUAAAUUGGGUAUAUGAAAACAUUACCAACUCUUGUUUUUCUAUAAAGAAAUACAGUUAAUAAC | 0.857 |
| UUCUCUCGUGAAUGGAGCUGUUUUCUUCAGAGCCUUUGCUCUGAAACAUCACGCUCCCCUGUAUGGGGAGAAGAAGGGUCAAGAUGGAUUUCUGCAGUUCCUGCGUUGGG | 0.297 |
| UGUGUAAGCAUUGAACACUGUCUUAGGAAAGGCCAUGAGGCCAUAUUUCUGUCAACCCUGGACCAACCAGUCUCUUAGAAGCCACUCAAGGGUAUAACACAUGCUCCGAG | 1.24 |
| GACAGCACAUGUGGGAAGUCAACGCAAGCCUCUCCCCUCCGUGGCUCUGGUUUCUUGGCUGCAUGGUUCUCUGUAAAUUCAGUUGUAGCCACUGUCUUUGGCUAGAAAGC | 1.09 |
| UUAAUUCGAAACAACUUGCAGUAUGCAUUUCUUCACACCAGUACAUUCUUAAGUGUACUUGUUUAUAAGGAAUAACAUAAACUAAUCUGUACCUUUAUAUAUAUGUGUGU | 0.447 |
| UAUCCCUGUCCCCAGGACCGAAACACAUAGCCUCAUUUCAAAGCGUAGCCAGGUUCCCUCUGCUUUCCUCUGGGAUAUGGAAAGGGGGCCAAGAGGACUUUGGAUCUCUC | 0.255 |
| CUGCCAGCUCUUAAGAAACAUUCCUGGUGCGGUGUCUGCAGUGCCCUUUGUGGGUGACUUCAGGCUUCCCGCUUUCGUGGUGCUCUUCCUGGGAUUCGUUUUUUUAUUAC | 0.253 |
| UUAAUACAUUAAGUGGGGUAGACUGAGGGAUUUUAGCCUCUUCCCUCUGAUUUUUCCUUUCGCGAAUCCGUAUCUGCAGAAUGGGCCACUGUAGGGGUUGGGGUUUAUUU | 0.262 |
| UGGAAGAAGGCAGUGGUGGUGGACAUCACAGAGCACUGCCAUUGAUAUCAGACUCCACAUAUGGCCUUAUUAAUUGCUGUAGGAAGCAUCUUGGGACUGGAAGAUAUGAU | 1.06 |
| AAAGGAAAAUGGCUUUGAAAAUGAGACAGUCUUUGUGGGUUUUGUCGUUGGUUUUUGUUUGUUUACUUGGUUUUCUCAUGUCCAGCACGGAGGUCUCCAGUUCACAAGAG | 0.661 |

Block 3
Target: Histone acetyltransferase KAT6A, both winged helices, GST fusion (KAT6A, Homo sapiens, UniProt Q92794, residues 1-181)
Method: protein binding microarray
Form: double-stranded DNA, one strand shown
Sample: in vitro
Tested at: not given
Setting: 8-mer, flanks averaged, mean of 2 arrays, mostly near background
Reference: not given
Reading: higher = stronger binding
Target sequence (chain): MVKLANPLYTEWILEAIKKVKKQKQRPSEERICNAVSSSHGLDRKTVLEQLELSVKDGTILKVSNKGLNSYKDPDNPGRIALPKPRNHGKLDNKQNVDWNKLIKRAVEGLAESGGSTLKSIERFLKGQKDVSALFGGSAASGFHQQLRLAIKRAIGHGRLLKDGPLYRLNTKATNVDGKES
| Strand | E-score |
| --- | --- |
| AAAAAAAC | 0.0441 |
| ACCGTGTA | 0.0884 |
| ACTAGAAC | -0.0331 |
| GCATAAGC | 0.0665 |
| GGAGCCAC | -0.176 |
| AGTCTAAC | -0.0978 |
| CAGATACC | -0.0684 |
| ATTTGAAG | -0.0132 |
| CCCCCGGC | 0.223 |
| AGCTAGTC | -0.0929 |
| GCTAGACC | 0.0208 |
| ACAAACAA | -0.129 |
| GGTGGTTA | 0.008 |
| GGCGAGTA | 0.128 |
| CCGTCTCC | 0.253 |
| CGTGGGGA | -0.00764 |
| CCGCAGGA | 0.00534 |
| AAATCAAT | -0.025 |
| AATTGCTC | -0.136 |
| TACGCTAA | 0.147 |
| CTACACAG | -0.0961 |
| GCCATTTA | -0.127 |
| ACTATAAA | -0.104 |
| CAAGACGG | 0.0785 |
| TCAGAAAA | -0.341 |

Block 4
Target: CCNB3, cyclin fold, Cln2 fusion (human)
Method: yeast growth competition, sequencing
Sample: yeast
Setting: strong parent motif
Reference: not given
Reading: higher = stronger binding
Starting sequence: RBL2 docking peptide (human); STTRRRLFVENDS
| Variant | normalised enrichment score |
| --- | --- |
| R5H | -0.0965 |
| T3K | -0.0387 |
| E10H | 0.395 |
| N11E | 1.15 |
| V9S | 0.98 |
| E10F | 0.655 |
| T2N | 1.12 |
| S1C | 1.68 |
| T3V | 3.08 |
| V9M | 1.06 |
| E10V | 1.02 |
| F8K | -0.305 |
| R4G | -0.23 |
| E10M | 0.965 |
| V9N | 1.27 |
| L7C | 0.0828 |
| S13K | 0.347 |
| D12P | 1.16 |

Block 5
Target: Sal-like protein 4, full length isoform B (SALL4, Homo sapiens, UniProt Q9UJQ4-2, residues 1-616)
Method: universal PBM
Form: double-stranded DNA, one strand shown
Sample: in vitro
Tested at: not given
Setting: 8-mer, flanks averaged, mean of replicates
Reading: higher = stronger binding
| Strand | E-score |
| --- | --- |
| AAGCCCCG | -0.236 |
| AAACTAAG | 0.198 |
| TTGCCAAA | 0.0631 |
| CATGCTGA | -0.0636 |
| GTATTCAC | 0.183 |
| CAGTATGG | -0.0229 |
| AAGGAGGC | -0.293 |
| CCGGCCGA | -0.312 |
| GTAAGCAC | -0.0488 |
| AAGGATAC | -0.0351 |
| CGGCACCG | -0.303 |
| ACGGTCGC | -0.315 |
| GCGTATCC | -0.247 |
| AGGCGCCG | -0.223 |
| ACGGTTGA | 0.00189 |
| CGCGGCTA | -0.309 |
| GACCAATC | -0.0843 |
| CCTTAGAC | -0.0326 |
| CAACCTCA | -0.0603 |
| CGCCAAAA | 0.0668 |
| CTCATGGA | -0.0464 |
| CGGACGGC | -0.287 |
| AACGCAGG | -0.151 |

Some of these lines once more (block 4):
| Variant | normalised enrichment score |
| --- | --- |
| E10H | 0.395 |
| N11E | 1.15 |
| V9S | 0.98 |
| E10F | 0.655 |
| T2N | 1.12 |
| S1C | 1.68 |
| T3V | 3.08 |
| V9M | 1.06 |
| E10V | 1.02 |
| F8K | -0.305 |
| R4G | -0.23 |
| E10M | 0.965 |
| V9N | 1.27 |
| L7C | 0.0828 |
| S13K | 0.347 |
| D12P | 1.16 |
